{"data": "Values quoted from earlier work as cited in several papers", "MEP1A": "Meprin A subunit alpha (MEP1A, Homo sapiens, UniProt Q16819)", "BRD4 BD1": "Bromodomain-containing protein 4, BD1 (BRD4, Homo sapiens, UniProt O60885)", "BRD4 BD2": "Bromodomain-containing protein 4, BD2 (BRD4, Homo sapiens, UniProt O60885)", "note": "Lines come from different studies, so protocols differ. Numbers after ± are the reported error.", "sequence of UniProt Q16819 (whole entry, looked up)": "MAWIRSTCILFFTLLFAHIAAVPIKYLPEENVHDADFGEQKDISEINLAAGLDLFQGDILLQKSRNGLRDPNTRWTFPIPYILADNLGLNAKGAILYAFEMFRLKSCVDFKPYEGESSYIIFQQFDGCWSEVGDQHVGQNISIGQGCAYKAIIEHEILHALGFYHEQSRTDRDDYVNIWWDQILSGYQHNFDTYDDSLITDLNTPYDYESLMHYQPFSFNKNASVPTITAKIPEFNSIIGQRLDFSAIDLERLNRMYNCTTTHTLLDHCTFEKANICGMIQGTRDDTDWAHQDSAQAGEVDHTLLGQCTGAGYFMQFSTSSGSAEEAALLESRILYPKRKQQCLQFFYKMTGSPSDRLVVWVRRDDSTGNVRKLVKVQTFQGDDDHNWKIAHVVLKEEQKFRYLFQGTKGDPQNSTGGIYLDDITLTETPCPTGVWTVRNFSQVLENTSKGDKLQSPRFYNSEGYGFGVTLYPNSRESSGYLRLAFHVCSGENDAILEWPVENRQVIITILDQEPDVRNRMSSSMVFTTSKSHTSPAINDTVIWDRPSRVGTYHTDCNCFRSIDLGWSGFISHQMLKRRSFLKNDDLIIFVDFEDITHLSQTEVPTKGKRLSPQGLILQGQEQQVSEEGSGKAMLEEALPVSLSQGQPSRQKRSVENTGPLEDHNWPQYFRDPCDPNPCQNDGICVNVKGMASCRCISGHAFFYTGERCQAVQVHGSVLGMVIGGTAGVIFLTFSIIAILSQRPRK", "sequence of UniProt O43318 (whole entry, looked up)": "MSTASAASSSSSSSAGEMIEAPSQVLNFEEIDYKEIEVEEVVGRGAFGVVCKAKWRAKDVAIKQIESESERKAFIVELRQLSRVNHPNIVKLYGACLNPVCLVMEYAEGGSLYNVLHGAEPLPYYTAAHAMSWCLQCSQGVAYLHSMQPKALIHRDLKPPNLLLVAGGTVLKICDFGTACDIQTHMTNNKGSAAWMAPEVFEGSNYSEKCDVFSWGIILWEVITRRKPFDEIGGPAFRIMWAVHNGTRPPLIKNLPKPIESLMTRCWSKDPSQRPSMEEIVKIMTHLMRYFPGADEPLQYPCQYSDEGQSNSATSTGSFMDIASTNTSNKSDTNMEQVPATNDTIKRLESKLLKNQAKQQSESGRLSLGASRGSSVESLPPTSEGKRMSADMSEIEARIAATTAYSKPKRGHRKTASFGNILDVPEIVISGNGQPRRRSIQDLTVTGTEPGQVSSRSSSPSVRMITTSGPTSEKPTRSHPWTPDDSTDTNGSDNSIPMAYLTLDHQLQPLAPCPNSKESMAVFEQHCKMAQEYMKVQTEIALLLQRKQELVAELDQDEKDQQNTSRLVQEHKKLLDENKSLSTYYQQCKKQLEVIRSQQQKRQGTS", "sequence of UniProt Q02127 (whole entry, looked up)": "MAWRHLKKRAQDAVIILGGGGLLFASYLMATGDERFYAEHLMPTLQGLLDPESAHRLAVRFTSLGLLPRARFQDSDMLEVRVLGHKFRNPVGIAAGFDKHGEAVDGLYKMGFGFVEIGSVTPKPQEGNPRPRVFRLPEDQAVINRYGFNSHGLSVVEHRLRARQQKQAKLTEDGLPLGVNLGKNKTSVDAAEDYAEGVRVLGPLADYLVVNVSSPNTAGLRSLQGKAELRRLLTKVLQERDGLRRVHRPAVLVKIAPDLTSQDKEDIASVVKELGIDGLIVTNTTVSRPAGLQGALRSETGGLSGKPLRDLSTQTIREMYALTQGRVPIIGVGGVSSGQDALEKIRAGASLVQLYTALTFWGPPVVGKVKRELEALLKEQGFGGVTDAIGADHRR", "sequence of UniProt P00690 (whole entry, looked up)": "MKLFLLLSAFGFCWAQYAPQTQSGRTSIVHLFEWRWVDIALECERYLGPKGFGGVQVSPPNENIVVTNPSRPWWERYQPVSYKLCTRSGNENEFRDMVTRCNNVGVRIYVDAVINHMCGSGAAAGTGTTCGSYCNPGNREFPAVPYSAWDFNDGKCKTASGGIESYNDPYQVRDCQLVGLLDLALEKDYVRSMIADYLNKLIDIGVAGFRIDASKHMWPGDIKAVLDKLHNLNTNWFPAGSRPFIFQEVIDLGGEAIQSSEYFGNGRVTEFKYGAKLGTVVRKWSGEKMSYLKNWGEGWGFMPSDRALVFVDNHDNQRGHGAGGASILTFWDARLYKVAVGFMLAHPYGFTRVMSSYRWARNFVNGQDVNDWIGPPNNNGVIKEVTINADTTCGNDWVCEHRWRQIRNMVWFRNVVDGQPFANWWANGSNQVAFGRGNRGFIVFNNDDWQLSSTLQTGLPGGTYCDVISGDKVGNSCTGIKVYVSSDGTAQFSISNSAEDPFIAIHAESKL", "sequence of UniProt P27338 (whole entry, looked up)": "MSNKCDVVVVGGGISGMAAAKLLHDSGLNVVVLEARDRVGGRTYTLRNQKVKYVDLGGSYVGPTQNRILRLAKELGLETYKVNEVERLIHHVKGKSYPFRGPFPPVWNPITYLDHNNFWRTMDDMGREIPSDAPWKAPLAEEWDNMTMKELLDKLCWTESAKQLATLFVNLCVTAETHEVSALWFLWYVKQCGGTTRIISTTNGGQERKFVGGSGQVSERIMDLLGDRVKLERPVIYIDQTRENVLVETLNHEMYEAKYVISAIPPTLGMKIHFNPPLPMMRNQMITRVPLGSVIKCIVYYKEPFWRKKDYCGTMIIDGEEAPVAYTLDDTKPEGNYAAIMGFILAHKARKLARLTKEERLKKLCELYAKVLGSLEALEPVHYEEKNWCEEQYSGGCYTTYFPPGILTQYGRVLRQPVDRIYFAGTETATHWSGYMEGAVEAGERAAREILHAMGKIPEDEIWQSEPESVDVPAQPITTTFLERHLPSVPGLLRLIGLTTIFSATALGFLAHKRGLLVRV", "sequence of UniProt P18405 (whole entry, looked up)": "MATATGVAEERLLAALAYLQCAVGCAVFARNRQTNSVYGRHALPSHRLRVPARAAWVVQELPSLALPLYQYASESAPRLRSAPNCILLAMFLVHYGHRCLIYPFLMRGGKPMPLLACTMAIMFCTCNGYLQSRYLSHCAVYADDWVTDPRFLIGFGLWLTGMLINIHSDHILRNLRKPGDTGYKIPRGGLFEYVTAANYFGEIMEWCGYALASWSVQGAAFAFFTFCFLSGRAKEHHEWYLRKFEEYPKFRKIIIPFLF", "sequence of UniProt P09874 (whole entry, looked up)": "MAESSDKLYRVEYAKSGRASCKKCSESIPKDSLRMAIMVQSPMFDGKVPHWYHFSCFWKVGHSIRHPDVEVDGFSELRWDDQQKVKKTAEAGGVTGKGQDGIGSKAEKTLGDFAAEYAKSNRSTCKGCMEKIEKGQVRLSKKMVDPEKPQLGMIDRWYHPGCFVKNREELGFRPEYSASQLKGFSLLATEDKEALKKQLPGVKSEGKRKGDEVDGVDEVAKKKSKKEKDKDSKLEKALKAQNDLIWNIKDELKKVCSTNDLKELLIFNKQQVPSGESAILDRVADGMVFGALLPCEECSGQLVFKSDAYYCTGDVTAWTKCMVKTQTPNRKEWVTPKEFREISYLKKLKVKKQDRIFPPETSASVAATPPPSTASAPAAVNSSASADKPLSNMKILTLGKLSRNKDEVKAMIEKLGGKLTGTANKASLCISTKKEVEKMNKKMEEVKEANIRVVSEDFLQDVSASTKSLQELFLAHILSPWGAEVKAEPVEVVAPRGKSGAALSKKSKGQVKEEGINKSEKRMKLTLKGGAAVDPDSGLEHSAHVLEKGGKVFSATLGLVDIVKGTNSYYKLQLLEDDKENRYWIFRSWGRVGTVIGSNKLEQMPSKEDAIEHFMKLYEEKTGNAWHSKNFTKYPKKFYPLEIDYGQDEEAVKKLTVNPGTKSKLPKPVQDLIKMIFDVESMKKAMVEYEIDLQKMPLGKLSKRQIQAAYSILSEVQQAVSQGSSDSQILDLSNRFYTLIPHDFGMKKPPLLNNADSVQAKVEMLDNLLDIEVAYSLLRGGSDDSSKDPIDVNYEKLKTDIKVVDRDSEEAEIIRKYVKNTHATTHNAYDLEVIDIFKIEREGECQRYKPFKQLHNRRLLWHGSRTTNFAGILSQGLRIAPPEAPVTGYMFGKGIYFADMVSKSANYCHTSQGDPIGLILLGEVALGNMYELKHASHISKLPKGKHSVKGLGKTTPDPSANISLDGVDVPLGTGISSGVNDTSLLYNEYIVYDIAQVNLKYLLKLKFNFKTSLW", "sequence of UniProt P06493 (whole entry, looked up)": "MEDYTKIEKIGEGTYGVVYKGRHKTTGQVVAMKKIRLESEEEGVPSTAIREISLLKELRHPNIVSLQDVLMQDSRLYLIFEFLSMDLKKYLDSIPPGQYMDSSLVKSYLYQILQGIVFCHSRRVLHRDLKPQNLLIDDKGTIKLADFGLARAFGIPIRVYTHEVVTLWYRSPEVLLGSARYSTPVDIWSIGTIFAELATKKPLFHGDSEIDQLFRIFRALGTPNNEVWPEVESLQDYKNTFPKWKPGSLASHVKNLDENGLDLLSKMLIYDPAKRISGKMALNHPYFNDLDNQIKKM", "sequence of UniProt Q9UH17 (whole entry, looked up)": "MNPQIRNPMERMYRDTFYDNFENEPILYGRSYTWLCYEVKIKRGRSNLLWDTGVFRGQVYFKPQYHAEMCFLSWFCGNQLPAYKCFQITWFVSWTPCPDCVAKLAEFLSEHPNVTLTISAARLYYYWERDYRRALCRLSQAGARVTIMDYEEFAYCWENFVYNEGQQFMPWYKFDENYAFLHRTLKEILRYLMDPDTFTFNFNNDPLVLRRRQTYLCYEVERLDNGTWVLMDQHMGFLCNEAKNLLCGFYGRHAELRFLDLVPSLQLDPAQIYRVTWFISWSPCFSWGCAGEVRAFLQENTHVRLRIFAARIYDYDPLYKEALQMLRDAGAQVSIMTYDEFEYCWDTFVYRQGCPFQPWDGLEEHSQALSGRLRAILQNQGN"}
{"Structure (SMILES)": "COc1ccc(Nc2nc(Nc3ccc(OCC[18F])cc3)ncc2Br)cc1", "system": "S180 tumour-bearing mice, blood", "conditions": "intravenous, 60 min", "measurement": "tissue uptake", "value": "1.93 ± 0.1 %ID/g"}
{"Structure (SMILES)": "O=C(CCN(Cc1cccc(C(=O)O)c1)Cc1cccc(C(=O)O)c1)NO", "target or system": "MEP1A", "assay": "enzyme activity, inhibitor", "measurement": "IC50", "value": "5030 ± 57 nM"}
{"Structure (SMILES)": "Cc1onc(-c2ccc(F)cc2)c1C(=O)N[C@H](C(=O)Nc1cccc(C(N)=O)c1)c1ccc(OCc2ccccc2)cc1", "target or system": "Genome polyprotein, NS2B-NS3 protease (dengue virus type 2, UniProt P29990)", "assay": "protease activity, inhibitor", "conditions": "with: substrate 50 µM", "measurement": "IC50", "value": "14000 nM"}
{"Structure (SMILES)": "COc1cccc(OC(=O)COC(=O)/C=C/c2ccc(O)cc2)c1", "target or system": "tyrosinase", "assay": "inhibitor", "measurement": "IC50", "value": "5700 nM"}
{"Structure (SMILES)": "O=C(/C=C/c1ccc(O)c(O)c1)Nc1cc(C(F)(F)F)cc(C(F)(F)F)c1", "target or system": "SRD5A1 (Homo sapiens, UniProt P18405)", "assay": "enzyme activity, inhibitor, HPTLC", "system": "HaCaT", "measurement": "IC50", "value": "1440 nM"}
{"Structure (SMILES)": "COc1cc(O)c2c(c1)C1OC1CC(O)C(O)C(=O)CCCC(C)OC2=O (stereo not drawn)", "target or system": "MAP3K7 (Homo sapiens, UniProt O43318)", "assay": "enzyme activity, inhibitor", "measurement": "IC50", "value": "> 30000 nM"}
{"Structure (SMILES)": "O=C(CN(Cc1cccc(C(=O)O)c1)Cc1ccc2c(c1)OCO2)NO", "target or system": "MEP1A", "assay": "enzyme activity, inhibitor", "measurement": "IC50", "value": "1910 ± 70 nM"}
{"Structure (SMILES)": "CNCc1ccc(-c2cc3cc(F)cc(C(N)=O)c3o2)cc1", "target or system": "PARP1 (Homo sapiens, UniProt P09874)", "assay": "enzyme activity, inhibitor", "measurement": "IC50", "value": "3.2 nM"}
{"Structure (SMILES)": "O=C(N/N=C/c1ccc(O)c(O)c1O)c1n[nH]c2ccccc12", "target or system": "AMY2 (Sus scrofa, UniProt P00690)", "how to read": "inhibition", "measurement": "IC50", "value": "400 ± 10 nM"}
{"Structure (SMILES)": "O=C(N/N=C/c1ccccc1F)c1ccc2ncccc2c1", "target or system": "α-glucosidase", "assay": "inhibitor", "measurement": "IC50", "value": "7400 ± 200 nM"}
{"Structure (SMILES)": "Oc1ccc(-c2csc(N/N=C3/c4ccccc4-c4nc5ccccc5nc43)n2)cc1", "target or system": "α-glucosidase", "measurement": "IC50", "value": "1440 ± 80 nM"}
{"Structure (SMILES)": "CC(=O)Cc1cc(-c2c(C)noc2C)cc(C(O)c2ccccc2)c1 (stereo not drawn)", "target or system": "BRD4 BD1", "assay": "biochemical", "conditions": "bromodomain 1", "measurement": "IC50", "value": "371 nM"}
{"Structure (SMILES)": "COc1ccc(O)c(C(=O)OCC(C)(C)CC2=C(O)C(=O)c3ccccc3C2=O)c1", "target or system": "alpha-glucosidase", "assay": "inhibitor", "measurement": "IC50", "value": "> 200 µg/mL"}
{"Structure (SMILES)": "Cc1cc(N=Nc2ccc3c(c2)CCC(=O)N3)c(N)cc1O", "target or system": "BRD4 BD2", "assay": "biochemical", "conditions": "bromodomain 2", "measurement": "IC50", "value": "32 nM"}
{"Structure (SMILES)": "Cc1ccc2occ(/C=N\\Nc3nc(-c4cccc(Br)c4)cs3)c(=O)c2c1", "target or system": "alpha-amylase", "assay": "enzyme activity, inhibitor", "measurement": "IC50", "value": "2190 ± 30 nM"}
{"Structure (SMILES)": "CCCc1nc2c(-c3ccc(Cl)cc3)nc3ccccc3c2c(=O)n1CC(=O)O", "target or system": "aldose reductase AKR1B1", "measurement": "IC50", "value": "190 ± 30 nM"}
{"Structure (SMILES)": "COc1ccc(C(C)=O)c(OC(=O)/C=C/c2ccc(F)cc2)c1", "target or system": "tyrosinase", "assay": "inhibitor", "measurement": "IC50", "value": "8000 nM"}
{"Structure (SMILES)": "CCOC(=O)c1[nH]c(C)c(Cc2ccc(C(F)(F)F)nc2)c1C", "target or system": "DHODH (Homo sapiens, UniProt Q02127)", "measurement": "IC50", "value": "> 100000 nM"}
{"Structure (SMILES)": "CC1C(=O)N(C)c2ccc(-c3ccc(Nc4cccc(S(=O)(=O)N(C)C)c4)cc3)nc2N1C1CCN(C)CC1 (stereo not drawn)", "target or system": "BRD4 BD2", "assay": "biochemical", "conditions": "bromodomain 2", "measurement": "IC50", "value": "< 50 nM"}
{"Structure (SMILES)": "Nc1nc(Nc2ccc(S(N)(=O)=O)cc2)nn1C(=O)c1cccs1", "target or system": "CDK1 (Homo sapiens, UniProt P06493)", "assay": "enzyme activity, inhibitor", "measurement": "IC50", "value": "2.1 nM"}
{"Structure (SMILES)": "CC(C)(COC(=O)c1ccc2c(c1)OCO2)CC1=C(O)C(=O)c2ccccc2C1=O", "target or system": "alpha-glucosidase", "assay": "inhibitor", "measurement": "IC50", "value": "72.5 ± 1 µg/mL"}
{"Structure (SMILES)": "COc1ccc(O)c(-c2nnc(-c3cnc4c(F)cccc4c3O)s2)c1", "target or system": "alpha-amylase", "assay": "enzyme activity, inhibitor", "measurement": "IC50", "value": "20 ± 620 nM"}
{"Structure (SMILES)": "CC(=O)c1sc(N/N=C2/c3ccccc3-c3nc4cc(F)ccc4nc32)nc1C", "target or system": "alpha-amylase", "assay": "enzyme activity, inhibitor", "measurement": "IC50", "value": "17600 ± 740 nM"}
{"Structure (SMILES)": "CCn1c2c(c(=O)[nH]c1=O)C(c1ccccc1)C1=C(CN(CCc3ccc(O)cc3)C1=O)N2 (stereo not drawn)", "target or system": "BRD4 BD1", "assay": "biochemical", "conditions": "bromodomain 1", "measurement": "IC50", "value": "410 nM"}
{"Structure (SMILES)": "O=C(CCN(Cc1ccc2c(c1)OCO2)Cc1ccc2c(c1)OCO2)NO", "target or system": "MEP1A", "assay": "enzyme activity, inhibitor", "measurement": "IC50", "value": "157 ± 1 nM"}
{"Structure (SMILES)": "Cc1cc2c(c(O)c1O)C(=O)c1c(O)cc(O)cc1C2=O", "target or system": "MAOB (Homo sapiens, UniProt P27338)", "measurement": "IC50", "value": "4550 ± 90 nM"}
{"Structure (SMILES)": "CC(C)c1ccc(CN2CCN(CC(=O)c3ccc4[nH]c(=O)[nH]c4c3)CC2)cc1", "target or system": "DNA dC->dU-editing enzyme APOBEC-3B, C-terminal domain (Homo sapiens, UniProt Q9UH17)", "measurement": "IC50", "value": "40000 nM"}
{"note": "Repeated from above:"}
{"Structure (SMILES)": "O=C(N/N=C/c1ccccc1F)c1ccc2ncccc2c1", "target or system": "α-glucosidase", "assay": "inhibitor", "measurement": "IC50", "value": "7400 ± 200 nM"}
{"Structure (SMILES)": "Oc1ccc(-c2csc(N/N=C3/c4ccccc4-c4nc5ccccc5nc43)n2)cc1", "target or system": "α-glucosidase", "measurement": "IC50", "value": "1440 ± 80 nM"}
{"Structure (SMILES)": "CC(=O)Cc1cc(-c2c(C)noc2C)cc(C(O)c2ccccc2)c1 (stereo not drawn)", "target or system": "BRD4 BD1", "assay": "biochemical", "conditions": "bromodomain 1", "measurement": "IC50", "value": "371 nM"}
{"Structure (SMILES)": "COc1ccc(O)c(C(=O)OCC(C)(C)CC2=C(O)C(=O)c3ccccc3C2=O)c1", "target or system": "alpha-glucosidase", "assay": "inhibitor", "measurement": "IC50", "value": "> 200 µg/mL"}
